Experimental data of several laboratories.
Each numbered part is a random draw from the data of one study; scales do not carry over between parts.
Chain of UniProt P42336 (whole entry, unmodified, looked up): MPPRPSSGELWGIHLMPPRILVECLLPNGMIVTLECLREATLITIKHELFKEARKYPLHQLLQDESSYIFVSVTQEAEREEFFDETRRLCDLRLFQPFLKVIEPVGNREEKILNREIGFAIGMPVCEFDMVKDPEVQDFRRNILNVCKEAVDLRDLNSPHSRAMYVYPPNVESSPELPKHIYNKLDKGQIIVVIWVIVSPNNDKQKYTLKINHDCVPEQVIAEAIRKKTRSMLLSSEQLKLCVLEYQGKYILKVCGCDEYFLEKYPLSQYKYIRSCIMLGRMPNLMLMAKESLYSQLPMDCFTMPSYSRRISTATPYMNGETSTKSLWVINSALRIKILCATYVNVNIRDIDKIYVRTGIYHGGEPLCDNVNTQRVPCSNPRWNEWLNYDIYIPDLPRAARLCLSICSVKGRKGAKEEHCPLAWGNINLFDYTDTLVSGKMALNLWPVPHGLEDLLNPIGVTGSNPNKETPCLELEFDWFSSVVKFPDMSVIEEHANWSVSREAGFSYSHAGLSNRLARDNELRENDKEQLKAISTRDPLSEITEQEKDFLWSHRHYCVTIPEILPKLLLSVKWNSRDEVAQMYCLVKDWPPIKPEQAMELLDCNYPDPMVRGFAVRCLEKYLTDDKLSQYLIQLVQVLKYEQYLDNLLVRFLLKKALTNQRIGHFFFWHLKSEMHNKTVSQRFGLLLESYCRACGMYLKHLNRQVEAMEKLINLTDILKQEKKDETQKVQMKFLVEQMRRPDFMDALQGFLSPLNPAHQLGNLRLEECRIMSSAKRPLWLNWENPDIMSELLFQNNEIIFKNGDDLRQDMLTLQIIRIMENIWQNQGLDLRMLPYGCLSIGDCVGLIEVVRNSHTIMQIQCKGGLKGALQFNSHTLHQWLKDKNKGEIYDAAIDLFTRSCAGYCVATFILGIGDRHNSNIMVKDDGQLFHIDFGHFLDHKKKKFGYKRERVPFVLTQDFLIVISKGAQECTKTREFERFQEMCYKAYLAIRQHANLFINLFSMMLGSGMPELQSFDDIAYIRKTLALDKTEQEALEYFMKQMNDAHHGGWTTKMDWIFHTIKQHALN
Chain of UniProt Q06187 (whole entry, looked up): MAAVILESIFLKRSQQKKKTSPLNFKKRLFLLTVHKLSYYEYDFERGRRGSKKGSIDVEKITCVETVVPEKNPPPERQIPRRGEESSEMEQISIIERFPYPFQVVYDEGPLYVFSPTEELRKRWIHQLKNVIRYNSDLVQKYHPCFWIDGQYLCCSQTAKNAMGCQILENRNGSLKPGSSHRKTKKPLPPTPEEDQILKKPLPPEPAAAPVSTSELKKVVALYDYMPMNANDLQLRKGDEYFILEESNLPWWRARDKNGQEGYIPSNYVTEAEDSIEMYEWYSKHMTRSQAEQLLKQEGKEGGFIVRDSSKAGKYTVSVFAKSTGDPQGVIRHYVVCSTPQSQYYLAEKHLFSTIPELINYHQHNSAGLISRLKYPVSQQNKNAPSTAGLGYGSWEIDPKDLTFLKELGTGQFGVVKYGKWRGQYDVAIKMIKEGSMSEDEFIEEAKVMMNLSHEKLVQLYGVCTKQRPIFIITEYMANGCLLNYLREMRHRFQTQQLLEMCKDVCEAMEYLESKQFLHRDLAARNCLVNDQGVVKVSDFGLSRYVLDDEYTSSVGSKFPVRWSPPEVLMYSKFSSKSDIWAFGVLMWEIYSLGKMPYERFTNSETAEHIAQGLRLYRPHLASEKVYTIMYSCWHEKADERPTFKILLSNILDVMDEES
Chain of UniProt O96013 (whole entry, looked up): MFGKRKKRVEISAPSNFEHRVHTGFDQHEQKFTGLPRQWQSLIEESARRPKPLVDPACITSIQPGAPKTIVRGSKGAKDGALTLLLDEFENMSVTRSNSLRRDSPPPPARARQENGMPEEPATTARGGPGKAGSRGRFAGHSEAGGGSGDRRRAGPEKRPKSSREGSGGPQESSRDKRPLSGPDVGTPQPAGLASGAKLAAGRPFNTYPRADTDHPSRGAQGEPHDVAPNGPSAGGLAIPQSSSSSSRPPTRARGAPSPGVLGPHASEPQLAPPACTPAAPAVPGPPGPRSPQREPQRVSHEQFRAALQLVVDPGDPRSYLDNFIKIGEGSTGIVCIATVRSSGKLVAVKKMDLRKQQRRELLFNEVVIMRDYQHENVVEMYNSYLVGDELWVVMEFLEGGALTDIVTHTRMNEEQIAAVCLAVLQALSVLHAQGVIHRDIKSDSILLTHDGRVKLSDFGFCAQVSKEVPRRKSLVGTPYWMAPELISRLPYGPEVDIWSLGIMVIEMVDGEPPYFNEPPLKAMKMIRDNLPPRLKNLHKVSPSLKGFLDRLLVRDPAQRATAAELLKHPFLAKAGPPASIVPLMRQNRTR
Chain of UniProt Q13164 (whole entry, looked up): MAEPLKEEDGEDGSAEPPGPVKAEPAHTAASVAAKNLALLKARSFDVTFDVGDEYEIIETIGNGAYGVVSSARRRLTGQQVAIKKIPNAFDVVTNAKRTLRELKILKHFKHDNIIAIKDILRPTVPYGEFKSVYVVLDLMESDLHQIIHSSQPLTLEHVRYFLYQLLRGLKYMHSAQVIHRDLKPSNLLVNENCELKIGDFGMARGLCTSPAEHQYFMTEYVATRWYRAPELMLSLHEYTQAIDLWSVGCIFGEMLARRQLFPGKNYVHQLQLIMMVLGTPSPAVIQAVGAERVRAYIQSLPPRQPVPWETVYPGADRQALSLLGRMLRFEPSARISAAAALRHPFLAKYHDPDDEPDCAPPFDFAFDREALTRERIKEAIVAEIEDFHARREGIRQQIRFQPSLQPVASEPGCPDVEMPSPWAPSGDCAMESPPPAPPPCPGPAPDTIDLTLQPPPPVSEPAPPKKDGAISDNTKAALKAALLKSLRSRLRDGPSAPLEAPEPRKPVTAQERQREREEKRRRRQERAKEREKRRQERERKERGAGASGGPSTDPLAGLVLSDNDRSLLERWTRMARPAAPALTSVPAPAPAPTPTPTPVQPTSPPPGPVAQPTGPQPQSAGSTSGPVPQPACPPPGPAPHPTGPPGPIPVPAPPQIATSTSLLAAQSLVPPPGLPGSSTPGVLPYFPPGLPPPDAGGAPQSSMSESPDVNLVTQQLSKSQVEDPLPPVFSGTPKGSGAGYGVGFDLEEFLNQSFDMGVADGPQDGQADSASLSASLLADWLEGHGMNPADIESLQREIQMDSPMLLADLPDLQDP
Chain of UniProt P22607 (whole entry, unmodified, looked up): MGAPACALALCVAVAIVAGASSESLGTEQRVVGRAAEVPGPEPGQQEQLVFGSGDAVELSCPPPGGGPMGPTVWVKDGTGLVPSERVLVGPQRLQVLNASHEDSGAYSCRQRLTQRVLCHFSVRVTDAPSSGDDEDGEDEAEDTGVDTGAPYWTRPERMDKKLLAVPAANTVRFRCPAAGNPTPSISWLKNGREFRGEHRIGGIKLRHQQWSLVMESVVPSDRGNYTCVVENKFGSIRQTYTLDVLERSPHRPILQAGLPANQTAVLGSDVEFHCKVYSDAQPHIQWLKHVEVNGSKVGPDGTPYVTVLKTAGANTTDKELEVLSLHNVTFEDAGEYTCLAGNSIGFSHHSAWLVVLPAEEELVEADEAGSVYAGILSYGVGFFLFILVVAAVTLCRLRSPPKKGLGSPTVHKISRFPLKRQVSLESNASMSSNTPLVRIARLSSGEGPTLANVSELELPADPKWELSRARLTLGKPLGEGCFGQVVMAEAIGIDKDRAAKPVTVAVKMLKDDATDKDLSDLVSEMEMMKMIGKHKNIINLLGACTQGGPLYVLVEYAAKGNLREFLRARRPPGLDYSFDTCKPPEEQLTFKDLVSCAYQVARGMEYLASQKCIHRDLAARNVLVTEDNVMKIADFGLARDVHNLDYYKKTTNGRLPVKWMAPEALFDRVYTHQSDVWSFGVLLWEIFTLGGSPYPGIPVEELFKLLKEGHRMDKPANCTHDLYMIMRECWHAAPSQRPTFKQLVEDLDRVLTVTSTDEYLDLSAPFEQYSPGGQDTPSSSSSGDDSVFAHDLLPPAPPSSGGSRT
Chain of UniProt Q00532 (whole entry, looked up): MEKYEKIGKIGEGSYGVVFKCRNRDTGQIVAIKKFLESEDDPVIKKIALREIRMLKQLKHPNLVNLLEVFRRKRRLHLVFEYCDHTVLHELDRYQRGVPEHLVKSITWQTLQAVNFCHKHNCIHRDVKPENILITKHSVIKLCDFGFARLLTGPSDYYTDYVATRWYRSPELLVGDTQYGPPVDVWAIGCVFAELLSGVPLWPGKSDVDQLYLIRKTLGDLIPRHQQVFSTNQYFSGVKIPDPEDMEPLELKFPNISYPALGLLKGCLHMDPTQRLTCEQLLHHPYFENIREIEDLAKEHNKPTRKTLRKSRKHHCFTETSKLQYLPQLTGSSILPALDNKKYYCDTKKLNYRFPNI

Series 1 — effect on: cell-free assay; method: competition with immobilised ligand; concentration: 1 µM
SMILES: CN(C)c1ncnc(-c2ccc3nc(Nc4cc(CN5CCN(C(=O)CC(F)(F)F)CC5)ccn4)[nH]c3c2)c1Cl
target	remaining binding
Cyclin-dependent kinase 4, with cyclin D1 (CDK4, Homo sapiens, UniProt P11802)	69%
PAK4 (Homo sapiens, UniProt O96013)	100%
TGFBR2 (Homo sapiens, UniProt P37173)	85%
MAST1 (Homo sapiens, UniProt Q9Y2H9)	86%
Tyrosine-protein kinase ABL1, phosphorylated (ABL1, Homo sapiens, UniProt P00519, T315I)	51%
MAPK7 (Homo sapiens, UniProt Q13164)	91%
Tyrosine-protein kinase JAK2, JH1 (JAK2, Homo sapiens, UniProt O60674)	44%
Myosin-IIIb (MYO3B, Homo sapiens, UniProt Q8WXR4)	100%
PDPK1 (Homo sapiens, UniProt O15530)	100%
TSSK1B (Homo sapiens, UniProt Q9BXA7)	100%
LCK (Homo sapiens, UniProt P06239)	100%
TSSK3 (Homo sapiens, UniProt Q96PN8)	62%
STK26 (Homo sapiens, UniProt Q9P289)	91%
TIE1 (Homo sapiens, UniProt P35590)	66%
MAPK14 (Homo sapiens, UniProt Q16539)	100%
HUNK (Homo sapiens, UniProt P57058)	80%
PRKD1 (Homo sapiens, UniProt Q15139)	100%
PRKD2 (Homo sapiens, UniProt Q9BZL6)	84%
PIK3CA (Homo sapiens, UniProt P42336, C420R)	88%
BTK (Homo sapiens, UniProt Q06187)	80%
FGFR3 (Homo sapiens, UniProt P22607, G697C)	100%
IRAK1 (Homo sapiens, UniProt P51617)	44%
IRAK4 (Homo sapiens, UniProt Q9NWZ3)	39%
NUAK2 (Homo sapiens, UniProt Q9H093)	66%

Series 2 — effect on: binding; concentration: 1 µM
SMILES: CN1CCN(C(=O)c2ccc(NC(=O)Nc3ccc(N(C)c4ccnc(Nc5ccc(CS(C)(=O)=O)cc5)n4)cc3)cc2)CC1
target	method	remaining binding
PAK6 (Homo sapiens, UniProt Q9NQU5)	–	92%
ULK1 (Homo sapiens, UniProt O75385)	–	79%
CDKL1 (Homo sapiens, UniProt Q00532)	–	73%
NEK7 (Homo sapiens, UniProt Q8TDX7)	–	93%
FLT3 (Homo sapiens, UniProt P36888, N841I)	–	0%
CSF1R (Homo sapiens, UniProt P07333)	competition with immobilised ligand	0%
GSK3A (Homo sapiens, UniProt P49840)	–	100%
PIK3CA (Homo sapiens, UniProt P42336, E545K)	–	97%
CSNK1G3 (Homo sapiens, UniProt Q9Y6M4)	–	100%

Series 3 — species: mouse; sample: microsomes or S9; concentration: 2 µM; time: 0.5 h
Structure (SMILES)	remaining compound
COC(=O)C1(C(=O)OC)C(CC(=O)c2ccc(Br)cc2)c2cc(N(C)C)ccc2C(c2ccccc2)N1S(=O)(=O)c1ccc(C)cc1 (stereo not shown)	62%
COc1c2c(cc3c1OCO3)CCN(C)C(C(C)=O)=C2	6.08%
COc1cc(/C=N/n2cnnc2)cc(Br)c1OCCOc1ccc(C(C)(C)C)cc1	> 99%
CC(C)Cn1c(=O)c(N2CCN(S(=O)(=O)Cc3ccccc3)CC2)nc2ccncc21	12.6%
CCc1cnc(N2CCC(N(C)c3ncnc4c(-c5ccc6c(c5)CN(C)C6=O)csc34)CC2)nc1	58.7%
CC(C)N(/C(=N/c1c(F)cccc1F)Nc1ccc2c(c1)C=CC(C)(C)O2)C(C)C	1.64%
N#Cc1nnc2ccccc2c1Oc1ccc2ncccc2c1	1.19%
CCOc1cc2c(cc1CNc1ccnc3c1cnn3C)OC(C)C2 (stereo not shown)	0.0415%
COC(=O)Nc1ccc(-c2ccc(C)nc2N)cc1	60.7%
O=C(Nc1ccc2c(c1)OCO2)C1CCN(Cc2nnc(-c3ccc(Br)s3)o2)CC1	2.27%
COc1cc(=O)n(C)cc1C(=O)N1CCN(c2ccccc2Cl)CC1	> 99%
CC(C)n1[nH]c(=O)c2c(-c3ccc[nH]c3=O)c3c(nc21)[nH]c(=O)n3C	89.5%

Series 4 — effect on: enzyme activity; action: inhibitor; concentration: 0.5 µM; reference: control
Target: Serine/threonine-protein kinase PLK1 (PLK1, Homo sapiens, UniProt P53350)
Chain of UniProt P53350 (whole entry, looked up): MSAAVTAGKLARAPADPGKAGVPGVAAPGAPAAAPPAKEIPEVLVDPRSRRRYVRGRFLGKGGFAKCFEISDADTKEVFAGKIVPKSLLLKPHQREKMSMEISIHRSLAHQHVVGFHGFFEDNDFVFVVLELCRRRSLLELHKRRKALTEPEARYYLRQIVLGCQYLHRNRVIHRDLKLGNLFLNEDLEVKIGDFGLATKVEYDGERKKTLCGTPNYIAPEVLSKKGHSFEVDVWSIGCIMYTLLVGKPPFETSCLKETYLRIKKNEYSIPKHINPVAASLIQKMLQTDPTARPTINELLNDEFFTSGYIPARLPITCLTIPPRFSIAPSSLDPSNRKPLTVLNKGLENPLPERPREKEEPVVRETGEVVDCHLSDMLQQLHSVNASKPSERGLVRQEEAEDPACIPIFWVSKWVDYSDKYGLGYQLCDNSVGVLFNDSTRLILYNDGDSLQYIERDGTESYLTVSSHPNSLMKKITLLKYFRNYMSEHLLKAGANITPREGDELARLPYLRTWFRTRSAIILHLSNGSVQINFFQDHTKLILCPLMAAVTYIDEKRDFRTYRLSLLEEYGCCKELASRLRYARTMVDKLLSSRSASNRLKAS
SMILES	remaining activity
COc1ccc(C(=O)Nc2sc3c(c2C(N)=O)CCCC3)cc1OC	99%
O=S(=O)(c1cccc2cnccc12)N1CCCNCC1	103%
C#Cc1cccc(Nc2ncnc3cc(OCCOC)c(OCCOC)cc23)c1	100%
Cc1nc(-c2ccccc2)c(-c2ccncc2)o1	104%
OCC(O)CCON=C1C(c2c(O)[nH]c3ccccc23)=Nc2ccccc21 (stereo not shown)	103%
COc1cc2ncnc(Nc3ccc(F)c(Cl)c3)c2cc1OCCCN1CCOCC1	97%
Nc1ncnc2n[nH]c(Nc3ccc(F)cc3)c12	99.9%
O=C(O)c1ccc2c3c1cccc3c(=O)n1c3ccccc3nc21	110%
O=C1NC(=O)C(c2cn(CCCO)c3ncccc23)=C1c1cnccn1	103%
NCCNc1ncc(C(N)=O)c(Nc2cccc(C(F)(F)F)c2)n1	94.8%
CC(C)[C@H](CO)Nc1nc(Nc2cc(N)cc(Cl)c2)c2ncn(C(C)C)c2n1	55%
O=c1c2ccccc2[nH]c(=S)n1CCN1CCC(=C(c2ccc(F)cc2)c2ccc(F)cc2)CC1	100%
Cc1cccc(-c2[nH]c(C(C)(C)C)nc2-c2ccc3c(c2)OCO3)n1	105%
N#CC(C#N)=C(N)/C(C#N)=C/c1ccc(O)cc1	60.8%
COc1cc2nccc(Oc3ccc(NC(=S)NC(=O)c4ccccc4C)cc3)c2cc1OC	97.9%
O=C1NC(=O)C(c2cn(CCCn3ccnc3)c3ccccc23)=C1Nc1ccccc1	99.5%
